{"data": "Results pooled from the literature", "HCRTR1": "Orexin/Hypocretin receptor type 1 (HCRTR1, Homo sapiens, UniProt O43613)", "PPIA": "Peptidyl-prolyl cis-trans isomerase A (PPIA, Homo sapiens, UniProt P62937)", "LRP1 CR8 domain": "LRP1, CR8 domain (Homo sapiens, UniProt Q07954)", "note": "Compare with care: the assays were run in different laboratories. ± gives the spread as reported.", "UniProt Q07954, sequence (whole entry, looked up)": "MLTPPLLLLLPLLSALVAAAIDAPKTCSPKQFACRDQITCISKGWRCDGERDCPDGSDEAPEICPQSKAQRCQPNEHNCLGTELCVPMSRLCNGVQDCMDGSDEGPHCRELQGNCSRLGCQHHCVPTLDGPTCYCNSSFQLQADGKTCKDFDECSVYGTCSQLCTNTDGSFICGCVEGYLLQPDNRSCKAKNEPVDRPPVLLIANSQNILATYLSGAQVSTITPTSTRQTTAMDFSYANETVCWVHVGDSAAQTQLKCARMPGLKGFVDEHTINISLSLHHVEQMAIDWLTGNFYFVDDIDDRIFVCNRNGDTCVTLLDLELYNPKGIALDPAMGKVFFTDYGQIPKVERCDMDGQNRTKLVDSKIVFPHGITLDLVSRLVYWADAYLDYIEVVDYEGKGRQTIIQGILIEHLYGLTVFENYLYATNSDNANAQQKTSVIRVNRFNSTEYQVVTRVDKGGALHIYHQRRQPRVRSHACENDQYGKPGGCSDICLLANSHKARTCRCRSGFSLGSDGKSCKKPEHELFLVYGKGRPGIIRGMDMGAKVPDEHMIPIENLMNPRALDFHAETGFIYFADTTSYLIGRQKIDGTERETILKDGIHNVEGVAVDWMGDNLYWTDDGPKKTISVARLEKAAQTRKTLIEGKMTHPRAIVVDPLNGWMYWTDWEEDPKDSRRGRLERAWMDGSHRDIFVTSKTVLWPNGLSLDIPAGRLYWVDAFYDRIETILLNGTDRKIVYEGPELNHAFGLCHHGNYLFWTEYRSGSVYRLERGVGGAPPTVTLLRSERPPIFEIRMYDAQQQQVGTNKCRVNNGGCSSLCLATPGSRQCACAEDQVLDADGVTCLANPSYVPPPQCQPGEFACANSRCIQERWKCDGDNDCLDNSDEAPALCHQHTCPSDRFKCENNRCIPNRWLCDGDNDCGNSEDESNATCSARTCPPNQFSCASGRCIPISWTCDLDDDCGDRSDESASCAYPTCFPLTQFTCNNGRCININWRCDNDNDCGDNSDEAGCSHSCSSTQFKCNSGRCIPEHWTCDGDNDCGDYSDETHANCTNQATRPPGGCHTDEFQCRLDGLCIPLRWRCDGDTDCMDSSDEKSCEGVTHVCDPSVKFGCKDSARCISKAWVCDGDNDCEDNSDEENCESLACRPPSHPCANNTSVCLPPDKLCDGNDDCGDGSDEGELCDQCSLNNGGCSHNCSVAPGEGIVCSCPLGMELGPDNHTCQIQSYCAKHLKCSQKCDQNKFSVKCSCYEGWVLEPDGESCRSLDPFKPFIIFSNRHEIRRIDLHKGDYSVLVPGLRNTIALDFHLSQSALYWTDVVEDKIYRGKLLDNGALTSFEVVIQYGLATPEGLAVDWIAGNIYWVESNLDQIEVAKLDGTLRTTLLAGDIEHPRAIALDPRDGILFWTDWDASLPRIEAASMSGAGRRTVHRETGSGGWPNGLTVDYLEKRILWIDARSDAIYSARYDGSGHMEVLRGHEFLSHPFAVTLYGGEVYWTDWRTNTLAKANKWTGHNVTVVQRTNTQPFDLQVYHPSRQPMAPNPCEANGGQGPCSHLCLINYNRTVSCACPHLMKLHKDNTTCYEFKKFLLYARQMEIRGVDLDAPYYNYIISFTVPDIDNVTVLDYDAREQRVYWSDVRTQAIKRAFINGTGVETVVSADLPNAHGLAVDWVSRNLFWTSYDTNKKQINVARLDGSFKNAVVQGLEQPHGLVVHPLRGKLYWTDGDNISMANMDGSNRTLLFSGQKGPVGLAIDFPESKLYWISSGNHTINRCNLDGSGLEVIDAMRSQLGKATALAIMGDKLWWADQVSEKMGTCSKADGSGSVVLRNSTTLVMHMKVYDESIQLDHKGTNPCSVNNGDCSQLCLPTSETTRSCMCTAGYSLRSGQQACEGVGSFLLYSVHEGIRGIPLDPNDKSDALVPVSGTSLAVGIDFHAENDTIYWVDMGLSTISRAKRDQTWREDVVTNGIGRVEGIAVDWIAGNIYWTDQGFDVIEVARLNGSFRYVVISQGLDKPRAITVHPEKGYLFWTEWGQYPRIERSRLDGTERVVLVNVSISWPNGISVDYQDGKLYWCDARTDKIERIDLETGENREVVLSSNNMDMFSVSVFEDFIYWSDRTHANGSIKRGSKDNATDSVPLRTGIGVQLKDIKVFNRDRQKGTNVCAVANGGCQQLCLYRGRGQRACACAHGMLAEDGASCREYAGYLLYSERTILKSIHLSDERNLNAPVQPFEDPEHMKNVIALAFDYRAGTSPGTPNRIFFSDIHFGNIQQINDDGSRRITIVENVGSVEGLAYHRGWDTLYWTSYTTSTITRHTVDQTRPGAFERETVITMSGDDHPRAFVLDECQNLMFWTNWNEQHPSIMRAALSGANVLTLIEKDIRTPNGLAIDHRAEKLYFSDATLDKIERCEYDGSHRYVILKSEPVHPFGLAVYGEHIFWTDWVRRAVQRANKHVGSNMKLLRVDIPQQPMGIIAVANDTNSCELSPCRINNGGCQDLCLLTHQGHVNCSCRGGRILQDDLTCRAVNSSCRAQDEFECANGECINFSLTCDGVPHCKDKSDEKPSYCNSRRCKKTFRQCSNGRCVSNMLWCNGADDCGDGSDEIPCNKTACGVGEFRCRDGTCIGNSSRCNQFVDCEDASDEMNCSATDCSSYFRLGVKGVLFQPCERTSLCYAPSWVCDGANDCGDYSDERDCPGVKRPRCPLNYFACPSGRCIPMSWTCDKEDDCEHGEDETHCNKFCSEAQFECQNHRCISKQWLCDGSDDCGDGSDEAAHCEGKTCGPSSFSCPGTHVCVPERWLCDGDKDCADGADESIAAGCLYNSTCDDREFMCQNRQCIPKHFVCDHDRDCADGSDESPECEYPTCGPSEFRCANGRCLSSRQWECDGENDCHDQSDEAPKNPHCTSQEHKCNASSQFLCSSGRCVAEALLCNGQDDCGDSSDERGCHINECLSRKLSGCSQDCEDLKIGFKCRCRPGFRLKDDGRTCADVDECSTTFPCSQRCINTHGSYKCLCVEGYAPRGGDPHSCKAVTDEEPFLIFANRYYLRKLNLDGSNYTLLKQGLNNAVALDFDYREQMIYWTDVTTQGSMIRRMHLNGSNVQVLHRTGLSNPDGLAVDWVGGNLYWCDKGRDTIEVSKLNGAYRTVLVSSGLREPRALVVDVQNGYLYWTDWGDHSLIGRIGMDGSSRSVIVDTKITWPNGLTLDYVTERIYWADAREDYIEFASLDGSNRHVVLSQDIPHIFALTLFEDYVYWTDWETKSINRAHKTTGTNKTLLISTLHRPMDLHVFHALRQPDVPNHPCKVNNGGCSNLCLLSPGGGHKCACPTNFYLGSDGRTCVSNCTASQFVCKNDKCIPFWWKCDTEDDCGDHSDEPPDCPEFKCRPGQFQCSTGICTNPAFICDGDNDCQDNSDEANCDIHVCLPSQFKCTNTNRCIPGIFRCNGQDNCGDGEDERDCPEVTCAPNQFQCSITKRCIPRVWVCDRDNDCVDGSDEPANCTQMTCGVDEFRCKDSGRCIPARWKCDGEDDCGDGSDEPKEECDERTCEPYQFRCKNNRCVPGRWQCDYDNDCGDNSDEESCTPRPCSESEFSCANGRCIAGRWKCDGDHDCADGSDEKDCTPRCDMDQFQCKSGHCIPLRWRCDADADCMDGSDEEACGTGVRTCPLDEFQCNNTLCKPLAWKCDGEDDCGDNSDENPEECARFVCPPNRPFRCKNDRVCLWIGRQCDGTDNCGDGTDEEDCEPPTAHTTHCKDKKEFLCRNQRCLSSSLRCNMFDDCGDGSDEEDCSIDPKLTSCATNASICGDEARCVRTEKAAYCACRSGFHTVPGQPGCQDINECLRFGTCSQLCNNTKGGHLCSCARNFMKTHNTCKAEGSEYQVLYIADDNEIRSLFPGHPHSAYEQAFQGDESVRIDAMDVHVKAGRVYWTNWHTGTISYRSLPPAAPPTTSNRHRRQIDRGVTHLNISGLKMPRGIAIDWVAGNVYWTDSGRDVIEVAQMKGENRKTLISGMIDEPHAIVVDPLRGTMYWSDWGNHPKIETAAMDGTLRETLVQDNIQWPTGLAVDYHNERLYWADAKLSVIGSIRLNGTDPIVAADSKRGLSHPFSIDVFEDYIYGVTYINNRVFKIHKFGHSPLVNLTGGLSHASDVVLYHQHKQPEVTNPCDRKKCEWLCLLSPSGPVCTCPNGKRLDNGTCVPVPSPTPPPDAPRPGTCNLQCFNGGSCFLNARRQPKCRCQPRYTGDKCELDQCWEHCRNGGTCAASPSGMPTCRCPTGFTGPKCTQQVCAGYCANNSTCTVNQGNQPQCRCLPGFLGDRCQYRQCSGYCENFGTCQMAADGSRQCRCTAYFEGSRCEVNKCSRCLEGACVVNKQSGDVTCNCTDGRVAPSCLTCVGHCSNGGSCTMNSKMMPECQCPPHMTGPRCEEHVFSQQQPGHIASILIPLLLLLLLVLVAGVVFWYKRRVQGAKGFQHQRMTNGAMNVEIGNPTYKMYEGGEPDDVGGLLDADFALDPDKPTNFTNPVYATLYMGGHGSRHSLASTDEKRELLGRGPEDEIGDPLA", "UniProt O43613, sequence (whole entry, looked up)": "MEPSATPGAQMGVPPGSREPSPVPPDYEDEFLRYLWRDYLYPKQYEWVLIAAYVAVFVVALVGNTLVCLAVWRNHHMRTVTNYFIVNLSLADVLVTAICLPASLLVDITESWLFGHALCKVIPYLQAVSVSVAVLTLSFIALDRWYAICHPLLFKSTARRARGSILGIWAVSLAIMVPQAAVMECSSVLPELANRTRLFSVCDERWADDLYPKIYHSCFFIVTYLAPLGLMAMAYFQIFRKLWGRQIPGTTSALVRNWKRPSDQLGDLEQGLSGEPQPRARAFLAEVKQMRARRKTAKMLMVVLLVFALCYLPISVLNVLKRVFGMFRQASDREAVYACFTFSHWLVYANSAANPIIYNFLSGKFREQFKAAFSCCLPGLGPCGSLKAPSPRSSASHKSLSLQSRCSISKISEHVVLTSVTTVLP", "UniProt P62937, sequence (whole entry, looked up)": "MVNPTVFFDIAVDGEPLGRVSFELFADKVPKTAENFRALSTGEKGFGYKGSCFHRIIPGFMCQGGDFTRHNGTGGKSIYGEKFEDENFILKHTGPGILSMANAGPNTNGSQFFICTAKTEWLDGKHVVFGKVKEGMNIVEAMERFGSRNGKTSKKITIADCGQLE"}
{"Molecule": "c1ccc2nc3ccccc3cc2c1", "target": "HIV-1 SL4 RNA stem-loop", "assay": "binding, ESI-FTMS titration", "setting": "pH 7.5", "Kd [µM]": "12.7 ± 1.4"}
{"Molecule": "O.O=C([O-])CN(CCN(CC(=O)[O-])Cc1cc(CCC(=O)O)ccc1O)Cc1cc(CCC(=O)NCCCCCC(=O)NCCCC[C@H](NC(=O)N[C@@H](CCC(=O)O)C(=O)O)C(=O)O)ccc1[O-].[Ga+3]", "target": "FOLH1 (Homo sapiens, UniProt Q04609)", "assay": "binding, radioligand", "Kd [µM]": 0.00289}
{"Molecule": "CC1NC(NCCC[C@H](N)C(=O)O)=NC1=O (stereo partly drawn)", "target": "V domain R98A", "assay": "fluorescence titration", "setting": "pH 6.5, 25 °C", "Kd [µM]": "> 10"}
{"Molecule": "CC[C@H](C)[C@H](NC(=O)[C@@H](N)CC(=O)O)C(=O)N1CCC[C@H]1C(=O)N1CCC[C@H]1C(=O)N1CCC[C@H]1C(=O)N[C@@H](CCCNC(=N)N)C(=O)N1CCC[C@H]1C(=O)N1CCC[C@H]1C(=O)N[C@@H](CCCCN)C(=O)N1CCC[C@H]1C(=O)N[C@@H](Cc1c[nH]cn1)C(=O)N1CCC[C@H]1C(=O)O", "target": "Growth factor receptor-bound protein 2, C-terminal SH3 domain (GRB2, Homo sapiens, UniProt P62993)", "assay": "ITC", "setting": "pH 8.0, 25 °C, wild-type C-terminal SH3 domain, added: Gab1-derived peptide", "scale": "lower = stronger binding", "Kd [µM]": "152 ± 6"}
{"Molecule": "hemin", "target": "Transcriptional regulator LmrR (Lactococcus cremoris, UniProt A2RI36, K55D/K59Q)", "assay": "tryptophan fluorescence quenching", "setting": "pH 7.0, 150 mM NaCl", "Kd [µM]": "0.038 ± 0.027"}
{"Molecule": "COc1ccc(CC2c3cc(OCCCCOc4ccccc4)c(OC)cc3CCN2CC(=O)NCc2ccccc2)cc1OC (stereo not drawn)", "target": "HCRTR1", "Kd [µM]": "0.0435 ± 0.0092"}
{"Molecule": "C/C=C1\\C([C@@]2(C)CCCC(C)(C)C2)=CC[C@H]2[C@H](OC(C)=O)O[C@H](OC(C)=O)[C@@H]12 (relative stereo)", "target": "PPIA", "assay": "binding, SPR", "setting": "pH 4.5", "Kd [µM]": 2.53}
{"Molecule": "COC(=O)[C@H](CCCCN)NC(C)=O", "target": "LRP1, CR5 domain (Homo sapiens, UniProt Q07954)", "assay": "binding, tryptophan fluorescence titration", "test system": "isolated CR5 domain", "setting": "pH 7.4, 298 K, ionic strength 0.17", "Kd [µM]": "2500 ± 320"}
{"Molecule": "CC(=O)N[C@@H](CCC(=O)O)C(=O)N[C@H](C(=O)N[C@@H](CC(C)C)C(=O)N[C@H](C(=O)N[C@@H](CCCNC(=N)N)C(=O)N1CCC[C@H]1C(=O)N[C@@H](CCCCN)C(=O)N1CCC[C@H]1C(=O)N[C@@H](CC(C)C)C(=O)N[C@@H](CC(C)C)C(=O)N[C@@H](CC(C)C)C(=O)N[C@@H](CCCCN)C(=O)N[C@@H](CC(C)C)C(=O)N[C@@H](CC(C)C)C(=O)N[C@@H](CCCCN)C(=O)N[C@@H](CO)C(=O)N[C@H](C(=O)NCC(=O)N[C@@H](C)C(=O)N[C@@H](Cc1ccc(O)cc1)C(N)=O)C(C)C)C(C)C)[C@@H](C)O", "target": "Protein S100-B (Homo sapiens, UniProt P04271)", "assay": "binding, NMR line shape analysis", "setting": "35 °C, low salt", "Kd [µM]": "0.1 ± 0.02"}
{"Molecule": "O=C(O)CC(O)(CC(=O)O)C(=O)O", "target": "SLC4A1 (Homo sapiens, UniProt P02730)", "assay": "chloride exchange flux", "test system": "human red blood cells", "setting": "0 °C, external pH 6.8, outward-facing state", "Kd [µM]": 3800}
{"Molecule": "CC[C@H](C)[C@H](NC(=O)[C@@H](NC(=O)[C@@H](NC(=O)[C@H](CO)NC(=O)[C@H](CO)NC(=O)[C@@H](NC(=O)[C@H](CC(C)C)NC(=O)[C@H](CC(N)=O)NC(=O)[C@H](C)NC(=O)[C@H](CCC(=O)O)NC(=O)[C@H](CCCNC(=N)N)NC(=O)[C@H](CC(=O)O)NC(=O)[C@@H](N)CC(C)C)[C@@H](C)O)C(C)C)[C@@H](C)O)C(=O)N[C@@H](CC(C)C)C(=O)N1CCC[C@H]1C(=O)N[C@@H](CC(C)C)C(=O)N1CCC[C@H]1C(=O)N[C@@H](CC(C)C)C(=O)N[C@@H](CCC(N)=O)C(=O)N[C@@H](CC(N)=O)C(=O)N[C@@H](C)C(=O)N[C@H](C(=O)N[C@H](C(=O)N[C@@H](CCC(=O)O)C(=O)N[C@@H](C)C(=O)NCC(=O)N[C@H](C(=O)N[C@@H](CCCNC(=N)N)C(=O)O)[C@@H](C)O)C(C)C)[C@@H](C)O", "target": "Toll-like receptor 4/MD-2 (TLR4/LY96, Homo sapiens, UniProt O00206+Q9Y6Y9)", "assay": "binding, ELISA", "setting": "added: His-tagged TLR4/LY96", "Kd [µM]": "> 0.1"}
{"Molecule": "CC(C)C[C@@H](NC(=O)[C@H](NC(=O)[C@@H](CCC(=O)O)NC(=O)[C@H](NC(=O)[C@@H](CC(=O)O)NC(=O)c1ccc(S(N)(=O)=O)cc1)C(C)C)C(C)C)C(N)=O", "target": "CA2 (Homo sapiens, UniProt P00918)", "assay": "binding, SPR", "Kd [µM]": 0.082}
{"Molecule": "COC(=O)[C@@H](N)Cc1c[nH]cn1", "target": "LRP1 CR8 domain", "assay": "tryptophan fluorescence titration", "setting": "pH 5.5, CR8 domain, low ionic strength", "Kd [µM]": "290 ± 10"}
{"Molecule": "COc1ccc(CC2c3cc(OS(=O)(=O)C(F)(F)F)c(OC)cc3CCN2CC(=O)NCc2ccccc2)cc1OC (stereo not drawn)", "target": "HCRTR1", "Kd [µM]": "0.01 ± 0.0028"}
{"Molecule": "O=P(O)(O)O[C@@H]1[C@H](O)[C@H](O)[C@@H](OP(=O)(O)O)[C@H](OP(=O)(O)O)[C@H]1O", "target": "Arf-GAP with SH3 domain, ANK repeat and PH domain-containing protein 1, PH domain (Asap1, Mus musculus, UniProt Q9QWY8)", "assay": "isothermal titration calorimetry", "setting": "25 °C", "Kd [µM]": "≥ 100"}
{"Molecule": "NC[C@H]1O[C@H](O[C@H]2[C@H](O)[C@@H](O[C@H]3O[C@H](CO)[C@@H](O)[C@H](N)[C@H]3O)[C@H](N)C[C@@H]2N)[C@H](N)C[C@@H]1O", "target": "HIV-1 nucleocapsid-SL2 RNA complex", "assay": "binding, ESI-FTMS", "setting": "pH 7.5", "Kd [µM]": "10.8 ± 1.7"}
{"Molecule": "COc1ccc(CC2c3cc(OC)c(OC)cc3CCN2CC(=O)NCCCN(C)C)cc1OC (stereo not drawn)", "target": "HCRTR1", "Kd [µM]": "> 10"}
{"Molecule": "[3H]CC1([3H])CCN(c2nc(C(F)(F)F)ccc2CNC(=O)Nc2cccc3c2OCC(=O)N3)CC1", "target": "TRPV1 (Homo sapiens, UniProt Q8NER1)", "assay": "radioligand binding", "setting": "added: PMA 1 µM and cyclosporin A 250 nM", "Kd [µM]": "0.000518 ± 6.2e-05"}
{"Molecule": "CC(C)C[C@H](NC(=O)[C@H](CCCNC(=N)N)NC(=O)[C@@H](N)CC(N)=O)C(=O)N[C@@H](CC(C)C)C(=O)N[C@H](C(=O)NCC(=O)O)[C@@H](C)O", "target": "dnaK (Escherichia coli, UniProt P0A6Y8)", "assay": "peptide binding, surface plasmon resonance", "setting": "added: ADP", "Kd [µM]": 0.962}
{"Molecule": "COC(=O)[C@@H](N)CCCN=C(N)N", "target": "LRP1 CR8 domain", "assay": "tryptophan fluorescence titration", "setting": "pH 7.4, 298 K, CR8 domain, ionic strength 0.17", "Kd [µM]": "560 ± 20"}
{"Molecule": "CNC(=O)CNC(=O)CN1CCc2cc(OC)c(OC)cc2C1Cc1ccc(OC)c(OC)c1 (stereo not drawn)", "target": "HCRTR1", "Kd [µM]": "7.64 ± 1.1"}
{"Molecule": "O=P(O)(O)O[C@H]1[C@H](OP(=O)(O)O)[C@@H](O)[C@H](O)[C@H](O)[C@@H]1OP(=O)(O)O", "target": "Fermitin family homolog 2, PH domain (Fermt2, Mus musculus, UniProt Q8CIB5)", "assay": "SPR", "setting": "pH 7.5, biotinylated compound immobilised", "Kd [µM]": 159}
{"Molecule": "COc1ccc(CC2c3cc(OS(C)(=O)=O)c(OC)cc3CCN2CC(=O)NCc2ccccc2)cc1OC (stereo not drawn)", "target": "HCRTR1", "Kd [µM]": "0.0073 ± 0.0027"}
{"Molecule": "COc1ccccc1C(=O)Nc1ccc(C(=O)Nc2ccccc2C(=O)O)cc1", "target": "Paired box protein Pax-2, paired domain (Pax2, Mus musculus, UniProt P32114)", "assay": "binding, biolayer interferometry", "Kd [µM]": "1.35 to 1.5"}
{"Molecule": "CC(C)C[C@H](NC(=O)[C@H](C)NC(=O)[C@H](CCCNC(=N)N)NC(=O)[C@H](CC(=O)O)NC(=O)[C@@H](NC(=O)[C@@H]1CCCN1C(=O)[C@@H]1CCCN1C(=O)[C@@H]1CCCN1)C(C)C)C(=O)N[C@@H](CCCCN)C(=O)N1CCC[C@H]1C(=O)N[C@@H](CC(=O)O)C(=O)N[C@@H](CCCNC(=N)N)C(=O)O", "target": "GRB2 (Homo sapiens, UniProt P62993)", "assay": "binding, ITC", "setting": "pH 8", "Kd [µM]": 72}
{"Molecule": "CN(CCOc1ccc(CC2SC(=O)NC2=O)cc1)c1ccccn1 (stereo not drawn)", "target": "Cytochrome P450 2C8 (CYP2C8, Homo sapiens, UniProt P10632, K399R/R139K)", "assay": "binding, equilibrium spectral titration", "test system": "purified enzyme", "setting": "pH 7.4, 25 °C, second site, two-site model, added: 2 µM enzyme", "Kd [µM]": "0.11 ± 0.08"}
{"Molecule": "OCCCCn1cnc2cc(Cl)c(Cl)cc21", "target": "Regulator of G-protein signaling 17 (Homo sapiens, UniProt Q9UGC6)", "assay": "binding, NMR", "Kd [µM]": 1500}
{"Molecule": "NC[C@@H]1O[C@H](O[C@H]2[C@@H](O)[C@H](O[C@@H]3[C@@H](O)[C@H](N)C[C@H](N)[C@H]3O[C@H]3O[C@H](CO)[C@@H](O)[C@H](O)[C@H]3N)O[C@@H]2CO)[C@H](N)[C@@H](O)[C@@H]1O", "target": "HIV-1 SL4 RNA stem-loop", "assay": "binding, ESI-FTMS titration", "setting": "pH 7.5", "Kd [µM]": "8 ± 1.1"}
{"Molecule": "COc1ccc(CC2c3cc(OC)c(OC)cc3CCN2CC(=O)NCc2ccncc2)cc1OC (stereo not drawn)", "target": "HCRTR1", "Kd [µM]": "1.01 ± 0.16"}
{"Molecule": "Cc1noc(NS(=O)(=O)c2ccc(NC(=O)c3cc(-c4cccc(Br)c4)nc4ccccc34)cc2)c1C", "target": "PPIA", "assay": "binding, SPR", "setting": "pH 7.4", "Kd [µM]": 1.13}
{"note": "A few entries again:"}
{"Molecule": "c1ccc2nc3ccccc3cc2c1", "target": "HIV-1 SL4 RNA stem-loop", "assay": "binding, ESI-FTMS titration", "setting": "pH 7.5", "Kd [µM]": "12.7 ± 1.4"}
{"Molecule": "O.O=C([O-])CN(CCN(CC(=O)[O-])Cc1cc(CCC(=O)O)ccc1O)Cc1cc(CCC(=O)NCCCCCC(=O)NCCCC[C@H](NC(=O)N[C@@H](CCC(=O)O)C(=O)O)C(=O)O)ccc1[O-].[Ga+3]", "target": "FOLH1 (Homo sapiens, UniProt Q04609)", "assay": "binding, radioligand", "Kd [µM]": 0.00289}
{"Molecule": "CC1NC(NCCC[C@H](N)C(=O)O)=NC1=O (stereo partly drawn)", "target": "V domain R98A", "assay": "fluorescence titration", "setting": "pH 6.5, 25 °C", "Kd [µM]": "> 10"}
